Experimental data pooled from the literature.
Protocols differ between the studies behind these lines. Numbers after ± are the reported error.

With `CCN(CC)Cc1cc(Nc2ccnc3cc(Cl)ccc23)ccc1O` the MRT was 6.32 ± 0.85 h (rat, Wistar, male, plasma; oral, 60 mg/kg, added: myricetin 5 mg/kg iv).
For `CC(C)=CCC[C@](C)(O[C@@H]1O[C@H](CO)[C@@H](O)[C@H](O)[C@H]1O)[C@H]1CC[C@]2(C)[C@@H]1[C@H](O)C[C@@H]1[C@@]3(C)CC[C@H](O[C@@H]4O[C@H](CO)[C@@H](O)[C@H](O)[C@H]4O[C@@H]4O[C@H](CO)[C@@H](O)[C@H](O)[C@H]4O)C(C)(C)[C@@H]3CC[C@]12C`, the MRT was 11.9 ± 4.6 h (Sprague Dawley rats, male, plasma; oral, 42 mg/kg, aqueous solution, added: co-dosed pure ginsenoside mixture).
The MRT of `COc1ccc(/C=C\c2cc(OC)c(OC)c(OC)c2)cc1OP(=O)(O)O` is reported as 0.89 ± 0.38 h (Sprague-Dawley rat male, plasma; intravenous, 28 mg/kg).
`CC(C)NC(=O)COc1cccc(-c2nc(Nc3ccc4[nH]ncc4c3)c3ccccc3n2)c1` has an MRT of 5.78 h (male C57BL/6 mouse, plasma; oral, 100 mg/kg).
With `N#C[C@]1(CO)O[C@@H](n2cnc3c(=O)[nH]c(N)nc32)C[C@@H]1O` the MRT was 1.91 ± 0.34 h (male Sprague-Dawley rat, plasma; oral, 1 mg/kg, added: entecavir 1 mg/kg).
For `CCCCN1CCCCC1C(=O)Nc1c(C)cccc1C` (centres unmarked), the EC20 was > 800 µM (mitochondrial swelling; BALB/cByJ female mouse liver mitochondria; 30 min, added: succinate + rotenone; reference: CaCl2 maximal swelling).
For `O=c1c(O)c(-c2ccc(O)cc2)oc2cc(OS(=O)(=O)O)cc(O)c12`, the MRT was 0.955 ± 0.398 h (FVB mice, male, Mrp1^−/−, plasma; oral, 10 mg/kg of kaempferol).
The tissue uptake of `CN(C)Cc1cc(OCCC[18F])ccc1Sc1ccccc1N` is reported as 0.19 ± 0.03 %ID/g (SERT; male Sprague Dawley rat, PCA-treated, hippocampus; intravenous, 60 min).
`Nc1ccn([C@@H]2O[C@H](CO)[C@@H](O)C2(F)F)c(=O)n1` has an MRT of 0.41 h (male BALB/c mouse, plasma; intravenous, 38 µmol/kg).
The EC20 of `CC[C@H]1OC(=O)[C@H](C)[C@@H](O[C@H]2C[C@@](C)(OC)[C@@H](O)[C@H](C)O2)[C@H](C)[C@@H](O[C@@H]2O[C@H](C)C[C@H](N(C)C)[C@H]2O)[C@](C)(O)C[C@@H](C)/C(=N\OCOCCOC)[C@H](C)[C@@H](O)[C@]1(C)O` is reported as 310 µM (mitochondrial swelling; BALB/cByJ female mouse liver mitochondria; 30 min, added: succinate + rotenone; reference: CaCl2 maximal swelling).
With `CC(C)=CCC[C@](C)(O[C@@H]1O[C@H](CO)[C@@H](O)[C@H](O)[C@H]1O)[C@H]1CC[C@]2(C)[C@@H]1[C@H](O)C[C@@H]1[C@@]3(C)CC[C@H](O)C(C)(C)[C@@H]3[C@@H](O[C@@H]3O[C@H](CO)[C@@H](O)[C@H](O)[C@H]3O)C[C@]12C` the MRT was 10.9 ± 5.1 h (Sprague Dawley rats, male, plasma; oral, 25 mg/kg, aqueous solution, added: co-dosed pure ginsenoside mixture).
With `COc1cccc(N2CCN(C3=Nc4c(F)cccc4[C@H](CC(=O)O)N3c3cc(C(F)(F)F)ccc3OC)CC2)c1` the MRT was 6.14 ± 1.84 h (UHPLC-MS/MS; healthy women, plasma; intravenous infusion, 120 mg single dose, 30 min infusion, HPβCD formulation).
`CO/N=C1\C[C@]2(C[C@@H]3C[C@@H](C/C=C(\C)C[C@@H](C)/C=C/C=C4\CO[C@@H]5[C@H](O)C(C)=C[C@@H](C(=O)O3)[C@]45O)O2)O[C@H](/C(C)=C/C(C)C)[C@H]1C` gave an MRT of 120 ± 73 h (HPLC, non-compartmental; Corriedale lambs, parasitized, plasma; subcutaneous, 0.2 mg/kg, added: closantel 5 mg/kg subcutaneous).
For `Cn1c(-c2ccc(C(N)=O)cc2F)nnc1C(C)(C)Oc1c(F)cc(Cl)cc1F`, the median Cmax was 0.286 ng/mL (young non-Japanese humans, plasma; oral, 2 mg, day 1, single dose).

Excerpt of the above:
For `CC(C)=CCC[C@](C)(O[C@@H]1O[C@H](CO)[C@@H](O)[C@H](O)[C@H]1O)[C@H]1CC[C@]2(C)[C@@H]1[C@H](O)C[C@@H]1[C@@]3(C)CC[C@H](O[C@@H]4O[C@H](CO)[C@@H](O)[C@H](O)[C@H]4O[C@@H]4O[C@H](CO)[C@@H](O)[C@H](O)[C@H]4O)C(C)(C)[C@@H]3CC[C@]12C`, the MRT was 11.9 ± 4.6 h (Sprague Dawley rats, male, plasma; oral, 42 mg/kg, aqueous solution, added: co-dosed pure ginsenoside mixture).
